Measurements gathered from unrelated publications.
Lines come from different studies, so protocols differ. Several values in a cell are separate wells, animals, samples, runs or records. Numbers after ± are the reported error.

SMILES | cell line | test | setting | how to read | quantity | value
COc1cc2c(cc1OC)C1CN(C)CCC1N=C2c1ccc(NS(=O)(=O)c2ccc(C)cc2)cc1 (stereo not drawn) | HEK293T ATF4-FLuc reporter | ATF4 reporter gene, activator, luciferase reporter |  |  | EC50 | 2.42 µM
O=C(O)c1cc(O)c(O)c(O)c1 | coculture, Caco-2, THP-1 | ELISA | 500 ng/mL, 8 h, together with: LPS, IFNγ, ATP | baseline: untreated control | IL-1β level | 6.4 ± 0.9 fold change
CC(C)C(=O)OCC(=O)[C@@]12O[C@H](C3CCCCC3)O[C@@H]1C[C@H]1[C@@H]3CCC4=CC(=O)C=C[C@]4(C)[C@H]3[C@@H](O)C[C@@]12C | HEK293T ATF4-FLuc reporter | ATF4 reporter gene, activator, luciferase reporter |  |  | EC50 | 0.0634 µM
O=C(O)CCc1ccc(O)c(O)c1 | coculture, Caco-2, THP-1 | ELISA | 1000 ng/mL, 8 h, together with: LPS, IFNγ, ATP | baseline: untreated control | IL-1β level | 6.4 ± 1.1 fold change
O=C(Nc1cc(C(F)(F)F)ccc1C(F)(F)F)c1cc(Br)ccc1O | HEK293T ATF4-FLuc reporter | ATF4 reporter gene, activator, luciferase reporter |  |  | EC50 | 1.12 µM
CC(C)NCC(O)c1ccc(O)c(O)c1 (stereo not drawn) | mouse ventricular cardiomyocytes |  | dose not given, 0.435 s |  | sarcomere length | 1.7 µm
CN(C)c1ccc(C(=C2C=CC(=[N+](C)C)C=C2)c2ccc(N(C)C)cc2)cc1 | human iPSC cardiomyocytes | plate-normalised | concentration not given, hit retest | baseline: vehicle controls, SDs below control | MyBP-C level change | 13.9 SD
C=Cc1c2[n-]c(c1C)/C=c1\[n-]/c(c(C)c1C=C)=C\c1[n-]c(c(CCC(=O)O)c1C)/C=c1\[n-]c(c(C)c1CCC(=O)O)=C2.[Sn+4] | SH-SY5Y | RNA-seq, refers to: SPOCD1 mRNA | 5 µM, 5 h | baseline: untreated cells | fold change | 5.29
CCn1c(=O)c(-c2cc(NC(=O)Nc3ccccc3)c(F)cc2Br)cc2cnc(NC)cc21 | THP-1 | pyroptotic LDH release | 2 µM, 40 min, together with: LPS then nigericin |  | inhibition | -0.29%
Nc1cccc2c1CN(C1CCC(=O)NC1=O)C2=O (stereo not drawn) | bone marrow CD138+ myeloma cells | XTT | 1.8 µM, phenol red-free RPMI |  | viability | 7%
CCN1CCN(Cc2ccc(NC(=O)c3ccc(C)c(-c4ccc5nc(NC(=O)C6CC6)cn5c4)c3)cc2C(F)(F)F)CC1 | MUTZ5 cells | Western blot, refers to: JAK2, STAT5, STAT3 | concentration not given |  | phosphorylation | inhibited
O=C1c2ccccc2C(=O)C1c1ccccc1 | THP-1 | pyroptotic LDH release | 2 µM, 40 min, together with: LPS then nigericin |  | inhibition | 18.3%
COc1cnc2cccc(N3CCc4c(cc(Cn5ccnc5C)cc4-c4cn(C)nc4C(F)(F)F)C3=O)c2c1 | SNU-423 | cell growth, inhibitor | 120 h |  | EC50 | > 30 µM
O=C(/C=C/C=C/C=C/C1CCCCC1)NC1=C[C@@](O)(/C=C/C=C/C=C/C(=O)NC2=C(O)CCC2=O)[C@@H]2O[C@@H]2C1=O | HCC1806 | cell growth, CellTiter-Glo | 78 h |  | GI50 | 13.7 µM
Cc1cc(C)cc(OCC2CNC(=O)O2)c1 (stereo not drawn) | THP-1 | pyroptotic LDH release | 2 µM, 40 min, together with: LPS then nigericin |  | inhibition | 1.91%
C=CC1=C(C)c2cc3[n-]c(cc4nc(cc5[n-]c(cc1n2)c(C)c5C=C)C(C)=C4CCC(=O)O)c(CCC(=O)O)c3C.[Zn+2] | SH-SY5Y | RNA-seq, refers to: SPOCD1 mRNA | 5 µM, 5 h | baseline: untreated cells | fold change | 4.6
CCCCN1CCN(c2ccc3nc(-c4ccc5nc(-c6cc(OC)ccc6OC)[nH]c5c4)[nH]c3c2)CC1 | SF-268 | SRB | 10 µM, 48 h |  | growth percent | 102%
Cn1cc(Nc2nccc(-c3ccc4c(c3)CN(C3COC3)CC[C@H]4NC(=O)c3cn(C(C)(C)C)nn3)n2)cn1 | mouse splenic B cells | refers to: IGF-1 signalling | 30 mg/kg, IgD-activated in vivo | baseline: vehicle, direction not given | pathway activation z-score | 1.73
CC(C)(C)NC(=O)N[C@H](C(=O)N1C[C@H]2[C@@H]([C@H]1C(=O)NC(CC1CCC1)C(=O)C(N)=O)C2(C)C)C(C)(C)C (stereo partly drawn) | THP-1 | pyroptotic LDH release | 2 µM, 40 min, together with: LPS then nigericin |  | inhibition | 4.26%
O=C(Nc1nnc2n3c(Cc4ccccc4)n[nH]c3nc(-c3ccc(Cl)cc3)c1-2)c1ccccc1 | RXF 393 | SRB | 10 µM, NCI60 single-dose screen | baseline: untreated | cell growth | 97.2%
COc1ccc(NC(=S)N/N=C/c2cccc3cc4ccccc4nc23)cc1 | HeLa | annexin V/PI flow cytometry | concentration not given, 48 h, together with: N-acetylcysteine |  | necrotic cells | 3.2 ± 0.13%

SMILES | cell line | test | setting | how to read | quantity | value
CNC(=O)c1cc(Oc2ccc(NC(=O)Nc3ccc(Cl)c(C(F)(F)F)c3)c(F)c2)ccn1 | THP-1 | pyroptotic LDH release | 2 µM, 40 min, together with: LPS then nigericin |  | inhibition | 15.1%
Cn1cc(-c2ccc(-c3cncc(Cl)c3N3CCC4(CCNC4=O)CC3)cc2)cn1 | COLO 205 | microarray, refers to: NRF2 | concentration not given, 2 h | baseline: untreated cells | fold change in expression | 2.1
Cc1c(C)c2c(c(C)c1O)CCC(C)(COc1ccc(CC3SC(=O)NC3=O)cc1)O2 (stereo not drawn) | HepG2 | mitochondrial ROS | 1 h, distribution mode 2 |  | point of departure | 15.1 µM
Cc1ccc(CNC(=O)Cn2cc(CSc3nc4ccccc4[nH]3)nn2)cc1 | MDA-MB-231 | MTT | 15.6 ppm |  | viability | 18.6%
c1ccc2[nH]ccc2c1 | HCT-8 | RNA-seq, refers to: ARRDC4 | concentration not given |  | mRNA level, LS mean | 86.3 counts per million
O=C(O)CCc1ccc(S(=O)(=O)CCc2c(CCNS(=O)(=O)Cc3ccccc3C(F)(F)F)n(C(c3ccccc3)c3ccccc3)c3ccc(Cl)cc23)cc1 | HEK293T ATF4-FLuc reporter | ATF4 reporter gene, activator, luciferase reporter |  |  | EC50 | > 9.96 µM
CCn1cc(-c2cc(Cn3ccnc3)cc3c2CCN([C@H](c2cc(OC)ccn2)C2CC2)C3=O)c(C(F)(F)F)n1 | NOMO-1 | cell growth, inhibitor | 120 h |  | EC50 | 5.66 µM
COc1cc(-c2oc3cc(O)cc(O)c3c(=O)c2O)ccc1O | coculture, Caco-2, THP-1 | ELISA | 250 ng/mL, 8 h, together with: LPS, IFNγ, ATP | baseline: untreated control | IL-1β level | 5.4 ± 2.1 fold change
Oc1cccnc1 | THP-1 | pyroptotic LDH release | 2 µM, 40 min, together with: LPS then nigericin |  | inhibition | 9.65%
COc1cc(O)c2c(=O)c(O)c(-c3ccc(O)c(O)c3)oc2c1 | Caco-2/THP-1 co-culture | TEER | concentration not given, together with: LPS 250 ng/mL | baseline: control | transepithelial electrical resistance | 94.3 ± 2.2%
CC(C)Oc1ccc(C(=O)N[C@H](CNC(=O)CN(C)C)Cc2ccc(-c3cn4cccc([C@H](C)O)c4n3)cc2)cc1Cl | THP-1 | pyroptotic LDH release | 2 µM, 40 min, together with: LPS then nigericin |  | inhibition | 15.8%
CCn1cc(-c2cc(Cn3ccoc3=N)cc3c2CCN([C@@H](C)c2cc(OC)ccn2)C3=O)c(C(F)(F)F)n1 | HCC38 | cell growth, inhibitor | 120 h |  | EC50 | 0.0541 µM
COc1ncccc1-c1cnc(N)c(Nc2ccc3[nH]ccc3c2)n1 | HEK293T ATF4-FLuc reporter | ATF4 reporter gene, activator, luciferase reporter |  |  | EC50 | 7.84 µM
CCOC(=O)c1cc(Cl)cc(NC(=O)c2sc(Cl)cc2S(=O)(=O)N(C)c2ccc(OCC)c(OC)c2)c1 | primary mouse glial cells | qPCR, refers to: ABCG1 | concentration not given, 24 h |  | mRNA level | increased
C[C@@H](O)CC(=O)O | THP-1 | pyroptotic LDH release | 2 µM, 40 min, together with: LPS then nigericin |  | inhibition | -6.74%
C=CCn1c(=O)c2cnc(Nc3ccc(N4CCN(C)CC4)cc3)nc2n1-c1ccc2c(n1)[C@@](O)(CC)CC2 | NCI-H1048 | flow cytometry | concentration not given |  | pHH3-negative cells | 83%
O=C(Nc1ccc(Cl)cc1)Nc1ccc(Cl)c(Cl)c1 | HEK293T ATF4-FLuc reporter | ATF4 reporter gene, activator, luciferase reporter |  |  | EC50 | 3.14 µM
Nc1ncnc2c1ncn2[C@@H]1O[C@H](COP(=O)(O)OP(=O)(O)OP(=O)(O)O)[C@@H](O)[C@H]1O | THP-1 ASC knockout, PMA-differentiated, Pam3CSK4-primed | inducer, ELISA | concentration not given |  | IL-1β release | 7.46 pg/mL and 11.2 pg/mL and 9.39 pg/mL
O=C(O)CCc1ccc(O)cc1 | coculture, Caco-2, THP-1 | ELISA | 50 ng/mL, 8 h, together with: LPS, IFNγ, ATP | baseline: untreated control | IL-1β level | 7.6 ± 1.1 fold change
OC[C@H]1O[C@@H](n2cnc3c(NCc4ccco4)ncnc32)[C@H](O)[C@@H]1O | HEK293T ATF4-FLuc reporter | ATF4 reporter gene, activator, luciferase reporter |  |  | EC50 | 4.98 µM
Cc1cnc2ccc3c(c2n1)N1CCC(O)N=C1N3C (stereo not drawn) | BALB/c 3T3 |  | 5 µM | baseline: solvent control | relative colony forming efficiency | 27 ± 3%

Repeated from above:
SMILES | cell line | test | setting | how to read | quantity | value
O=C(O)CCc1ccc(O)c(O)c1 | coculture, Caco-2, THP-1 | ELISA | 1000 ng/mL, 8 h, together with: LPS, IFNγ, ATP | baseline: untreated control | IL-1β level | 6.4 ± 1.1 fold change
C=CCn1c(=O)c2cnc(Nc3ccc(N4CCN(C)CC4)cc3)nc2n1-c1ccc2c(n1)[C@@](O)(CC)CC2 | NCI-H1048 | flow cytometry | concentration not given |  | pHH3-negative cells | 83%
